Measured values of several laboratories.
Compare with care: the assays were run in different laboratories.

SMILES = CCC(=O)N1CCC=C(c2cc3c(Nc4cc5ncsc5cc4F)ncnc3s2)C1; system = mouse, plasma; conditions = intravenous, 10 mg/kg; Vd = 3.73 L/kg
SMILES = O=C(O)c1ccc(/C=C2\SC(=S)N(Cc3cccc(C(F)(F)F)c3)C2=O)cc1; system = C57BL/6 mouse, blood; conditions = intravenous, 5 mg/kg; Vd = 0.46 L/kg
SMILES = Fc1cccc(-n2cc(-c3ccccc3)nc2NCc2ccc(C(F)(F)F)c(F)c2)c1; system = male CD-1 mouse, plasma; conditions = intraperitoneal, 25 mg/kg, single dose; Vd = 5.8 L/kg
SMILES = O=C(Nc1ccc(C(F)F)cc1)[C@H](CC1CCCCC1)Nc1nn2c(=O)ccnc2s1; system = female nude mouse, plasma; conditions = intravenous, 1 mg/kg; Vd = 1.17 L/kg
SMILES = COC1C=COC2(C)Oc3c(C)c(O)c4c(c3C2=O)C2=NC3(CCN(CC(C)C)CC3)NC2=C(NC(=O)C(C)=CC=CC(C)C(O)C(C)C(O)C(C)C(OC(=O)c2cncnc2)C1C)C4=O (stereo not drawn); system = female CD-1 mouse, plasma; conditions = intravenous, 5 mg/kg; Vd = 2.4 L/kg
SMILES = COc1cnc2cccc(N3CCc4c(cc(Cn5ccnc5)cc4-c4cn(C)nc4C(F)(F)F)C3=O)c2c1; system = male CD-1 mouse, plasma; conditions = intravenous, 3 mg/kg; Vd = 0.8 L/kg
SMILES = CCC1(CC)CC(=O)N(C2CCOc3ccc(C(=O)NC4CC(C)(C)Oc5ccccc54)cc32)C(=N)N1 (stereo not drawn); system = male C57BL/6 mouse, plasma; conditions = intravenous, 2 mg/kg; Vd = 6.6 L/kg
SMILES = Fc1cncc(-c2ccc3[nH]c4ncnc(N[C@H]5CC[C@H](N6CCOCC6)CC5)c4c3c2)c1; system = CD-1 mouse, plasma; conditions = intravenous, 1 mg/kg; Vd = 4.67 L/kg
SMILES = Cc1cc(C(=O)N[C@@H](CC(=O)NC(C)(C)C)C(=O)NCCNC(=O)c2cccc(-c3cc[nH]n3)c2)no1; system = mouse, plasma; conditions = intravenous, 0.1 mg/kg; Vd = 2.39 L/kg
SMILES = O=C(NCCCCc1ccccc1)n1c(=O)oc2cc(-c3ccc(F)cc3)ccc21; system = CD-1 mouse, plasma; conditions = intraperitoneal, 10 mg/kg; Vd = 11.6 L/kg
SMILES = FC(F)(F)Oc1ccc2[nH]c(-c3ccc(OCCN4CCOCC4)cn3)nc2c1; system = mouse, plasma; conditions = intraperitoneal, 100 mg/kg; Vd = 194 mL
SMILES = Nc1ccc(-c2cc(Cl)c(Cl)c3[nH]c4c(c23)CN(C(=O)CO)CC4)cn1; system = C57BL/6 mouse, blood; conditions = intravenous, 0.5 mg/kg; Vd = 1.03 L/kg
SMILES = O=C1CCC(N2C(=O)c3ccc(N4CCC(C(=O)N5CCC(CCN6CCC(CNC(=O)c7cccc(-c8noc(C(F)(F)F)n8)c7)(c7nc(-c8ccccc8)cs7)CC6)CC5)CC4)cc3C2=O)C(=O)N1 (stereo not drawn); system = CD-1 mouse, plasma; conditions = oral, 30 mg/kg; Vd = 65.5 L/kg
SMILES = CC(=O)N1CCC=C(c2cc3c(Nc4cc5ncsc5cc4F)ncnc3s2)C1; system = mouse, plasma; conditions = intravenous, 10 mg/kg; Vd = 1.78 L/kg
SMILES = C/C(N)=N/C(=N\S(=O)(=O)c1ccc(C(F)(F)F)cc1)N1C[C@H](c2ccccc2)C(c2ccc(Cl)cc2)=N1; system = male C57BL/6 mouse, plasma; conditions = intravenous, 5 mg/kg; Vd = 2.4 L/kg
SMILES = CCC(=O)NC1CC=C(c2cc3c(Nc4cc5ncsc5cc4F)ncnc3s2)CC1 (racemic); system = mouse, plasma; conditions = intravenous, 10 mg/kg; Vd = 2.74 L/kg
SMILES = Cc1ncsc1-c1ccc(CNC(=O)[C@@H]2C[C@@H](O)CN2C(=O)[C@@H](NC(=O)COCC(C)(COCCOCCOCCNC(=O)C[C@@H]2N=C(c3ccc(Cl)cc3)c3c(sc(C)c3C)-n3c(C)nnc32)COCCOCCOCCNC(=O)C[C@@H]2N=C(c3ccc(Cl)cc3)c3c(sc(C)c3C)-n3c(C)nnc32)C(C)(C)C)cc1; system = male C57BL/6 mouse, plasma; conditions = intravenous, 5 mg/kg, single dose; Vd = 0.35 L/kg
SMILES = Cc1cc(NCCOC(C)C)c2nc(N3CCOC[C@H]3C)cc(=O)n2c1; system = C57BL/6 mouse, plasma; conditions = intraperitoneal, 10 mg/kg, single dose; Vd = 0.924 L/kg
SMILES = COC1C=COC2(C)Oc3c(C)c(O)c4c(c3C2=O)C2=NC3(CCN(CC(C)C)CC3)NC2=C(NC(=O)C(C)=CC=CC(C)C(O)C(C)C(O)C(C)C(OC(=O)c2cccnc2)C1C)C4=O (stereo not drawn); system = female CD-1 mouse, plasma; conditions = intravenous, 5 mg/kg; Vd = 1.8 L/kg
SMILES = Cc1cc(NCC(=O)C(C)(C)C)c2nc(N3CCOC[C@H]3C)cc(=O)n2c1; system = C57BL/6 mouse, plasma; conditions = intraperitoneal, 10 mg/kg, single dose; Vd = 3.84 L/kg
SMILES = O=C1CCC(N2Cc3cc(C(=O)O)c(F)cc3C2=O)C(=O)N1 (stereo not drawn); system = male CD-1 mouse, plasma; conditions = intravenous, 1 mg/kg; Vd = 1.9 L/kg

Repeated from above:
SMILES = Fc1cncc(-c2ccc3[nH]c4ncnc(N[C@H]5CC[C@H](N6CCOCC6)CC5)c4c3c2)c1; system = CD-1 mouse, plasma; conditions = intravenous, 1 mg/kg; Vd = 4.67 L/kg
SMILES = Cc1cc(C(=O)N[C@@H](CC(=O)NC(C)(C)C)C(=O)NCCNC(=O)c2cccc(-c3cc[nH]n3)c2)no1; system = mouse, plasma; conditions = intravenous, 0.1 mg/kg; Vd = 2.39 L/kg
